Assay results collected from several papers.
A part holds a random share of what one study measured. Changes are numbered by the printed parent chain.

Sample 1 — method: RNAcompete; form: RNA; medium: in vitro; concentration: 20 nM; setting: 7-mer, probes averaged, single round; relative to: mean of 7-mers; reading: higher = stronger binding
Target: PABPC1L2, full length, GST fusion (mouse, UniProt A0ABA7IW68)
Target sequence (chain): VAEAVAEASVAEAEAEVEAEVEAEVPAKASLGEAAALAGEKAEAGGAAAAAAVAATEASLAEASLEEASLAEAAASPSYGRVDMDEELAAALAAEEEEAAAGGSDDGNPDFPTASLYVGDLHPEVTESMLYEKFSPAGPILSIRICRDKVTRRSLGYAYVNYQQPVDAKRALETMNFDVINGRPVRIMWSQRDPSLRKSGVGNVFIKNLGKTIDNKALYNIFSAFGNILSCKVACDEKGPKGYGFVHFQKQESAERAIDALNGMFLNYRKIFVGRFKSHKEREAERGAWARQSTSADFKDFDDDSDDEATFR
Strand | 7-mer Z-score
AGGAUCA | 0.231
UCCGCGG | -0.291
ACCGUAC | -0.275
GGGUGUA | 0.182
AUAUCUU | -0.0953
GAAAAAU | 12.1
UGAGCAU | -0.11
GAUCGAA | 0.0551
GAUCUCU | -0.338
UGCCAAG | -0.141
AACCACU | -0.0536
ACGGGUU | -0.0754
CCUAGAA | 0.24
AACAGUU | 0.283
GCGAAAC | 0.1
GAUACGC | -0.28
UGCUCCC | -0.17
GCCUCGG | -0.327
AUGUACA | -0.0826
GAUCACG | -0.108
UCCAUUU | -0.19
AUAGACA | 0.00979

Sample 2 — method: protein-binding microarray; form: double-stranded DNA, one strand shown; medium: in vitro; concentration: 2540 nM top; setting: 60-bp whole probe; added: salmon DNA 0.4 mg/ml; relative to: random background probes; reading: higher = stronger binding; all sequences stand within: GCCTAGCAC … GTCTTGATTCGCTTGACGCTGCTG
Target: Interferon regulatory factor 3, full length, phosphomimetic (IRF3, Homo sapiens, UniProt Q14653, residues 1-427, S386D/S396D/S398D/S402D/T404D/S405D)
Construct (chain): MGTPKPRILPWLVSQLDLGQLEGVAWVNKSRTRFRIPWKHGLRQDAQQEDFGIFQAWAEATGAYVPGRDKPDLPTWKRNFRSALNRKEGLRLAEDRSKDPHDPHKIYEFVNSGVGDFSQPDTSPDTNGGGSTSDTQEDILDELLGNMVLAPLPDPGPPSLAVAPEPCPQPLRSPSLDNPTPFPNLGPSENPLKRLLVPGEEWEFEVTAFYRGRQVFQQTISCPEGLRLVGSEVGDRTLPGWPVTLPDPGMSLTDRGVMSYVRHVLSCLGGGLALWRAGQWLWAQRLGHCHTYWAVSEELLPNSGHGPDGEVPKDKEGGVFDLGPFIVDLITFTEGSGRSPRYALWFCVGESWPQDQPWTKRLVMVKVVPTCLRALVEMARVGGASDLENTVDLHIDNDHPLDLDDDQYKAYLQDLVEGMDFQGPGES
Strand | fitted relative affinity
GAGGGTATCCTTCTCCTGACGTGCTAG | 5.63 z-score
TTAGGTTTCGGTTTCGGATAGTGCTAG | 12.3 z-score
TTAGGTATCCTTTTACTTTAGTGCTAG | 7.65 z-score
TTAGGACAGGGGACTGGGTTAGTGCTA | -0.863 z-score
CTAGGACTGCTTTTCCTTTAGTGCTAG | 0.877 z-score
GCTGTCATCGATTTCTTCCCGTGCTAG | 0.0729 z-score
TTCGATTTCAGACTGGATTAGTGCTAG | 1.16 z-score
AACAGAGGAATGGATACAGAGTGCTAG | 0.696 z-score
TTAGGTTTAGGACTGGGTTAGTGCTAG | -0.444 z-score
TATGTTCCCTATTTAAGGCTGTGCTAG | 3.21 z-score
TTAGGACTGGATCTCGGTTAGTGCTAG | -0.297 z-score
GACGATTTCAGTTTCGAGACGTGCTAG | 4.97 z-score
TTAGGTTTCGCGTTTCGGTTAGTGCTA | 4.15 z-score
GACGATATCAGTTTCGAGGCGTGCTAG | 2.97 z-score
ATAGGACTGCTTCTCCTTTAGTGCTAG | -0.0931 z-score
TTAGGTTTCCTTTCCCCTTAGTGCTAG | 10.6 z-score
GGTGTCTAGGTTAGGGATTAGTGCTAG | -0.264 z-score
AACGGTCTCCTTATCCTGACGTGCTAG | 2.73 z-score

Sample 3 — method: RNA Bind-n-Seq; form: RNA; medium: in vitro; concentration: 365 nM; relative to: no-protein control; reading: higher = stronger binding
Target: RNA binding protein fox-1 homolog 2, RRM domain, GST-SBP tag (RBFOX2, Homo sapiens, UniProt O43251-10, residues 100-194)
Setting: natural RNA segment, single round, ends assumed
Residues (chain): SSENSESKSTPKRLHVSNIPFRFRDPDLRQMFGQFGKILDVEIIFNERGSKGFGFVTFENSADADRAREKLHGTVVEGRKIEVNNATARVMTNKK
Strand | RBNS enrichment (R)
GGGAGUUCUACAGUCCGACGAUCAAGUGUGACCACUUAAAGCUGCUCGUUAGCAUGGAAGACUUCUCCAUUCUAUCUUUGUAAAACAGACAAGAUAUGCACUUGACAUAGUAGCAAAUUGGUUCUGAAUUAUGUGGAAUUCUCGGGUGCCAA | 0.914
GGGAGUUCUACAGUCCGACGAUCUAGUAGCAGACAGAUGGAAACAUUGUCUCAUUUUGUCAAGGAGUCCAAAGAAAUGAUUAUAAAACCAGGAUUCAUCCUUCUUCUCCAGAAAGAUUUUUUUUUAAGUAAACUGGAAUUCUCGGGUGCCAA | 0.626
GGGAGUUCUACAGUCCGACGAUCGCCAGCCAGUUCUGGGGAUUCAGAGGUGCAGGGAAGGGUUAGGGAAAAGGGGGCAAGGUUUUGGCAUUAGAUGCACUUAACCCGGCUUCCACCAGCUUCUUCCCCUCUUCUGGAAUUCUCGGGUGCCAA | 0.264
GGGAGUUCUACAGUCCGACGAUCAUAUGCUUAAUAGUGUGCUAAAUAAGUGCUCUUCUGUCUUUUAUUAGAGCUUCUCAGAAACCCUAAUAGGCAAGUAUUAUCUUGAUUUUGCAGAUGUGAAAGCUAAGACCUGGAAUUCUCGGGUGCCAA | 0.295
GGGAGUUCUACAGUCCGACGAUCAUCUCUGACCCAAUGAGAAAGAGACACUCAUCUCUGGGAAAUGUGCCUCUCUGGAAUCUCCAUCCCAACCAUUUCCUGUUCUUGGGAAGGUCCUACGGGCUUCAGAAUCUUGGAAUUCUCGGGUGCCAA | 0.232
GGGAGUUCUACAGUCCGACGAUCUAAAUGGAAUGUUUCUGCCUCAGUUCUUUUGACUACCUCCUAGGACAUGGAAACAAAUAUUUGGGAGCCUGCAUAGUCUUUAGAUGGCUGCCAAAGCACUUAAAAUCUCCUGGAAUUCUCGGGUGCCAA | 0.722
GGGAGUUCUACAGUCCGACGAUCGGCAACUUUGGGAAUUCUGGGAUCCCACUGUCUUGACAGGUUCCUAGACCGGAGCGCAUGCUGGCUAUUACUGAACACGGCCAUACUUGAGAAACAAAGUCUACUGUGUAUGGAAUUCUCGGGUGCCAA | 3.33
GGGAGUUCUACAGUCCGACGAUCGAUUUUUAGUUAAAAAUCAUGUAGUCUAAUAUGCUGCAGUUAUUUUUUUAUAUUUUUCAAUGCAUUUAAUUAUCUUUUUUAUAAUUCUUUGUACUAACUCAGCAUGUAACUGGAAUUCUCGGGUGCCAA | 2.83
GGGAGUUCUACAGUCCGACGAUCAAGUGUUUUGUUUGUUUGAAACAGUUUUACACUUUCUAAUGUACAGUACUUGAAGUUCGUACUAGAGAAUUCCUUUGUAGUUUUGAAGCUUUUAUCCAAACUACUUUGAAUGGAAUUCUCGGGUGCCAA | 0.439
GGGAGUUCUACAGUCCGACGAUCACAUGGUAUUGUAUAUCAGUGGAGAAAUGUAUUAUUUCCAUGAUCAAAUGUAGUCUCUGUUAAGGUCAAGUUUUCUUUUAUAAGCCUUUAAUUCAUCCUCAGUGACUCUGUGGAAUUCUCGGGUGCCAA | 0.563
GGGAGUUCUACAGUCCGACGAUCUUGUCAUUCUUUGUUGCCCCUUUUCUGUCACCAGCCAACCACAUAGCCUUGGGACCAGCCUCUCUGGGGGACCAGAAGUAGUGAGAGAAGGAAGGGGAUAGGCAGCUUUGUGGAAUUCUCGGGUGCCAA | 0.323
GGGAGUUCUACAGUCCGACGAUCGCCCAUGGGAUAUGUGGUGUAUAUCCUUCCAAAAAAUUAAAACGAAAAUAAAGUAGCUGCGAUUGGGUAUGUGUUUCCUGGGUUAGGGGAAGGACUCUGCCCUAUUGAGGUGGAAUUCUCGGGUGCCAA | 1.14

Sample 4 — method: protein binding microarray; form: double-stranded DNA, one strand shown; medium: in vitro; concentration: not given; relative to: not given; reading: higher = stronger binding
Target: Histone acetyltransferase KAT6A, winged helix 2, GST fusion (KAT6A, Homo sapiens, UniProt Q92794, residues 85-181)
Setting: 8-mer, flanks averaged, mean of 2 arrays, mostly near background
Construct (chain): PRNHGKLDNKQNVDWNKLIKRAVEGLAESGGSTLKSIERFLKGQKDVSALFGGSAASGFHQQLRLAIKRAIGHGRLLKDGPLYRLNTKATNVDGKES
Strand | E-score
GAGGTGCA | 0.0763
CAATACTC | 0.013
AACGCTGT | -0.121
AATACGCT | -0.157
AGTGGACC | 0.0213
TGGGGAAA | -0.0055
ACAGCTAA | 0.0111
AATCAACA | 0.165
GATGCGCA | 0.0548
AAGGAGCA | 0.0244
CCGGCGGA | 0.256
AGCGAACG | -0.119
CTTTGAGA | 0.109
AGGCAGCG | -0.0451
GAAACACA | 0.0878
AGTGCACG | 0.00965
CCCGGCGG | 0.306
CACCGGTG | -0.154
AACCATCG | 0.0421
AGCCTAAT | -0.0652
AAACGACT | 0.0395
CCGTGATA | -0.0795
CTCCAGTA | -0.0159
AACGGTGA | -0.0491
ACCCCCGT | 0.0341

Sample 5 — method: universal PBM; form: double-stranded DNA, one strand shown; medium: in vitro; concentration: 600 nM; reading: higher = stronger binding
Target: Sal-like protein 4, full length isoform A (SALL4, Homo sapiens, UniProt Q9UJQ4, residues 1-1053)
UniProt Q9UJQ4, sequence (whole entry, looked up): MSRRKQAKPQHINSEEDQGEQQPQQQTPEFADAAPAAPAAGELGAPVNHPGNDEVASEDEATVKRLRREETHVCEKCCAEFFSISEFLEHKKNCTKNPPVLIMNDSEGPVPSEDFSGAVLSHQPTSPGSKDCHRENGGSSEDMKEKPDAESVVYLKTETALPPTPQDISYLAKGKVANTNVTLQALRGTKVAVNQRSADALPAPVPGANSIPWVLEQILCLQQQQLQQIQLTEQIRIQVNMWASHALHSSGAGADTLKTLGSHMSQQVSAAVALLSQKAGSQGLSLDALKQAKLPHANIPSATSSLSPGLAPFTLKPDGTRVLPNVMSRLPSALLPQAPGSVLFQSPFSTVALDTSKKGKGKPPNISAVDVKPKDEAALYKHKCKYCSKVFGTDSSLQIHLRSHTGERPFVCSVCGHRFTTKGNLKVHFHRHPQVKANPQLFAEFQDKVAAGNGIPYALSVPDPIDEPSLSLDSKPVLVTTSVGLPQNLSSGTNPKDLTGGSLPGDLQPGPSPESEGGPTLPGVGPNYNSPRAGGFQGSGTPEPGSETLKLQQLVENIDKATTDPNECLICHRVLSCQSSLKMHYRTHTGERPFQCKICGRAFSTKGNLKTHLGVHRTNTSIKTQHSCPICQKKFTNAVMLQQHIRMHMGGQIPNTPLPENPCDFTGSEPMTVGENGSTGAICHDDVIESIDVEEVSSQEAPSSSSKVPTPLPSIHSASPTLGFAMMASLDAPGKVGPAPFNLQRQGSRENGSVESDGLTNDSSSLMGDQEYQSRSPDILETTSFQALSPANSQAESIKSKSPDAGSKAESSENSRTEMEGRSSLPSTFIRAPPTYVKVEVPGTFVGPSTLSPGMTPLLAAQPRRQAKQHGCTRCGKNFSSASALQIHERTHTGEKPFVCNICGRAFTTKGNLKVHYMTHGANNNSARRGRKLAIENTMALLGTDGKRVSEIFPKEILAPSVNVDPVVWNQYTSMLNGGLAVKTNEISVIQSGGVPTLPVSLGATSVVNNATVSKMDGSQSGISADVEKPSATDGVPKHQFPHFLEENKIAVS
Setting: 8-mer, flanks averaged, mean of replicates
Strand | E-score
ACACGTGA | 0.00276
CATGCAAC | 0.0907
AGGAACTC | -0.0395
ACGAACAA | 0.238
CGCGGCAG | -0.336
GTGGTGAA | -0.0851
CATCTGAA | 0.131
GAAATGGC | -0.0764
TATACCGA | 0.2
TAATTGGA | 0.176
CGGGTTGC | -0.213
CGTCGGCC | -0.334
CTGTGCCA | -0.139
AATTGATC | 0.102
CATTTCCG | 0.144
CACCCGCC | -0.2
AGGGCAAT | -0.13
TATTCCGA | 0.191
TATTACCA | 0.364
TCCAACCA | -0.0174
CGCGGCCC | -0.422
CGTTGTAC | 0.192
CCGCCAGA | -0.173

Sample 6 — target: CCND3, cyclin fold, Cln2 fusion (human); method: yeast growth competition, sequencing; medium: yeast; setting: weak parent motif; relative to: not given; reading: higher = stronger binding
Starting sequence: PKMYT1 docking peptide (human); SFEPRNLLSLFED; partner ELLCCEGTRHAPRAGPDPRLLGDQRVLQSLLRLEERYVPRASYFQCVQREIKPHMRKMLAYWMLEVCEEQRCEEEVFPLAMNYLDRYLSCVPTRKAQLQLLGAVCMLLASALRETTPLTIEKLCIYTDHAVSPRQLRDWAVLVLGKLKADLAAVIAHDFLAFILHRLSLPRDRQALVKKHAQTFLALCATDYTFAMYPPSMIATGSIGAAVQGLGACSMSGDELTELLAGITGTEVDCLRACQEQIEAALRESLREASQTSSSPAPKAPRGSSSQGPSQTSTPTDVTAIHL
Substitution | normalised enrichment score
D13V | 0.0551
L10V | 0.0829
E12F | 0.0694
S9Y | 0.0598
R5C | 0.0638
N6S | 0.126
S1G | 0.101
N6R | 0.108
S1M | 0.168
E12K | 0.0112
S9P | 0.129
P4M | 0.19
F11N | 0.0872
D13T | 0.066
F2N | 0.0626
E12M | 0.0519
L8D | 0.0297

Excerpt of the above (sample 2):
Strand | fitted relative affinity
GCTGTCATCGATTTCTTCCCGTGCTAG | 0.0729 z-score
AACGGTCTCCTTATCCTGACGTGCTAG | 2.73 z-score
TTAGGTTTAGGACTGGGTTAGTGCTAG | -0.444 z-score
TATGTTCCCTATTTAAGGCTGTGCTAG | 3.21 z-score
TTAGGACAGGGGACTGGGTTAGTGCTA | -0.863 z-score
TTAGGTATCCTTTTACTTTAGTGCTAG | 7.65 z-score
ATAGGACTGCTTCTCCTTTAGTGCTAG | -0.0931 z-score
TTAGGTTTCCTTTCCCCTTAGTGCTAG | 10.6 z-score
